Experimental data gathered from unrelated publications.
Every numbered part comes from another study and shows a few of its results, in no order.
Chain of UniProt Q96RR4 (whole entry, looked up): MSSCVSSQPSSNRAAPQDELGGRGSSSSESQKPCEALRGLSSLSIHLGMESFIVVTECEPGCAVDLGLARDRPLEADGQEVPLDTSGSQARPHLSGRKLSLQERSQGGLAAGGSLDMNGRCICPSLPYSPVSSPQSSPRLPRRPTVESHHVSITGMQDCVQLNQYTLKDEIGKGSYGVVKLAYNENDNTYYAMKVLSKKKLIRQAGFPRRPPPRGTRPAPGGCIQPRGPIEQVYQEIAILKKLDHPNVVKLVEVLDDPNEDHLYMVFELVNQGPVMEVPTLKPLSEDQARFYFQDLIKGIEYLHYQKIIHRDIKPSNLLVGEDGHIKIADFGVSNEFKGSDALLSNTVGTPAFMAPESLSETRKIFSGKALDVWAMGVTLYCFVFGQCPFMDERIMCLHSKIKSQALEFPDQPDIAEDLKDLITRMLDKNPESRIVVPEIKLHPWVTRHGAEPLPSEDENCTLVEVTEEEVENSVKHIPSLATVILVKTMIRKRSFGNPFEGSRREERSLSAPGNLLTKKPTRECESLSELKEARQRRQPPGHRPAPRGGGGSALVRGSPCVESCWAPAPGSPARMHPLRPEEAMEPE
Chain of UniProt Q8IWQ3 (whole entry, looked up): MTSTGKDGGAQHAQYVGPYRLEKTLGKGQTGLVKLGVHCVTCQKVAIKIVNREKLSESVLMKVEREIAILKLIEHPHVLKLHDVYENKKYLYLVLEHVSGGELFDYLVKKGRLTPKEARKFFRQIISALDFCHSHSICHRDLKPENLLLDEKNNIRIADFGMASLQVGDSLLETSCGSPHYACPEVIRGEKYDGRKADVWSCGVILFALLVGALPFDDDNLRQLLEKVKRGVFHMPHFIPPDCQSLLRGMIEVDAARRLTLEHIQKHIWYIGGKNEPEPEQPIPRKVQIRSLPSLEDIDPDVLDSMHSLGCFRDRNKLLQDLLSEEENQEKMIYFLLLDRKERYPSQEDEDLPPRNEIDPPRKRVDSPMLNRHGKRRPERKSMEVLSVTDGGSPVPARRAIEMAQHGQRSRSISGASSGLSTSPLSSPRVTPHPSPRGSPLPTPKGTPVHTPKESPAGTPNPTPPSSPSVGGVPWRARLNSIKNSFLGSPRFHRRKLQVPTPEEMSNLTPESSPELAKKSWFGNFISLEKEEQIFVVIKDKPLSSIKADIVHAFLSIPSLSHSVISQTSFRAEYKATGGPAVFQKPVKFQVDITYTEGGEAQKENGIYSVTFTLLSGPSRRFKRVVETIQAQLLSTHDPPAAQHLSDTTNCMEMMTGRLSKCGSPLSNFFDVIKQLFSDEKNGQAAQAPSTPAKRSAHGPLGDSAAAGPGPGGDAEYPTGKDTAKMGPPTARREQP
Chain of UniProt Q14164 (whole entry, looked up): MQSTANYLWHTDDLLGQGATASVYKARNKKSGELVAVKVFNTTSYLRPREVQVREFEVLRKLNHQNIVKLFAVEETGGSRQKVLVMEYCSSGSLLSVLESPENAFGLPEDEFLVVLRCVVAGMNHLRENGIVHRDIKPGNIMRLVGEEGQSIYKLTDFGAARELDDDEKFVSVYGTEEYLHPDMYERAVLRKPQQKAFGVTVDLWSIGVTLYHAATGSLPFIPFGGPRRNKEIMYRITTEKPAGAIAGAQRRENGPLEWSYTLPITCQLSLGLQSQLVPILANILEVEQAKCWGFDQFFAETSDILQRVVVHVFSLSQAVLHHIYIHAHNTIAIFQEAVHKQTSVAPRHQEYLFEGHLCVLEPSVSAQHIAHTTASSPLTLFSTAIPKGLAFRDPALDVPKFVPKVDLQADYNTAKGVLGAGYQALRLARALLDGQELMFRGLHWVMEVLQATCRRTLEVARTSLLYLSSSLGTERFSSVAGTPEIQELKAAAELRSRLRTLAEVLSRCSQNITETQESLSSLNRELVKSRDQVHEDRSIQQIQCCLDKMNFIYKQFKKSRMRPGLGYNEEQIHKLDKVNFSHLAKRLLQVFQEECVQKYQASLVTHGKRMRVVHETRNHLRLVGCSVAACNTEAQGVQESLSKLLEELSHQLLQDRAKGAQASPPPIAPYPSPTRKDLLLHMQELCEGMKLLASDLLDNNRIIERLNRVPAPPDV
Chain of UniProt P53355 (whole entry, looked up): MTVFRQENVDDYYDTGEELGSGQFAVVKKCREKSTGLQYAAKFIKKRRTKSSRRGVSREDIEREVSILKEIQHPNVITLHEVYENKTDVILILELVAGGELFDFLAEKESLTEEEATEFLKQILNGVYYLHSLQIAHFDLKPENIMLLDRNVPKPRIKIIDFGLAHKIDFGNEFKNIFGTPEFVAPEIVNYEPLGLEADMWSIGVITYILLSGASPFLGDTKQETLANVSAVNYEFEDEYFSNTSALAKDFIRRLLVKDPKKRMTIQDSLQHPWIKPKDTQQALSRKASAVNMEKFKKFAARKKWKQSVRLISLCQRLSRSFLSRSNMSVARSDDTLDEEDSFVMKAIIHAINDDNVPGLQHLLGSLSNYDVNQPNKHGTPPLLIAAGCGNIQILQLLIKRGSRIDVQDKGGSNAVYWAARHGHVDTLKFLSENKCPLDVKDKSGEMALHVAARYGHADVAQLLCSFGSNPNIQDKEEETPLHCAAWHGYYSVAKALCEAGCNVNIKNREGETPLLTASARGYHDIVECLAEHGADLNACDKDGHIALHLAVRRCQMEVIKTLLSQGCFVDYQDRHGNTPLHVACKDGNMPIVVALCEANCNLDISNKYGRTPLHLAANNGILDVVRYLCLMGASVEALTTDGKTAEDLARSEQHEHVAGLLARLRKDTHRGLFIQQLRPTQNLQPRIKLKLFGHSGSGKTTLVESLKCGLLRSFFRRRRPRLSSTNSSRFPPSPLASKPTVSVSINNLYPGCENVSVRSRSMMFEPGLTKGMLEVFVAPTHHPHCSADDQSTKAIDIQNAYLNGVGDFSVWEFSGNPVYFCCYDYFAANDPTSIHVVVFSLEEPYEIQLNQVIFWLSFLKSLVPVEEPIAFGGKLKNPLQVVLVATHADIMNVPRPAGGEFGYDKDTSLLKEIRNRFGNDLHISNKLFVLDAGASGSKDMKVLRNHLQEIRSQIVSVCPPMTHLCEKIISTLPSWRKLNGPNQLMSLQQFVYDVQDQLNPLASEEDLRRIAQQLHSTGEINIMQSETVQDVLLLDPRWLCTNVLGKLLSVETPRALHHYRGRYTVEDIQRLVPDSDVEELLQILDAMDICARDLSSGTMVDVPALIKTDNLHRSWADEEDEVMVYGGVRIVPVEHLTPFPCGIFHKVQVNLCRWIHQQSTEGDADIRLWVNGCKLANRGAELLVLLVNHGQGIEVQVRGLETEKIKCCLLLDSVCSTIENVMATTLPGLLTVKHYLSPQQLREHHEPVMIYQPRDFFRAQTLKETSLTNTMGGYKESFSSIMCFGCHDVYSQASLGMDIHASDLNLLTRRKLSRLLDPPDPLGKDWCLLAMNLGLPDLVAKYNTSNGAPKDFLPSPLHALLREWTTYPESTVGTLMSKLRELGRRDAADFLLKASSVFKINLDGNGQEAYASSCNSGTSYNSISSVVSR
Chain of UniProt P36897 (whole entry, looked up): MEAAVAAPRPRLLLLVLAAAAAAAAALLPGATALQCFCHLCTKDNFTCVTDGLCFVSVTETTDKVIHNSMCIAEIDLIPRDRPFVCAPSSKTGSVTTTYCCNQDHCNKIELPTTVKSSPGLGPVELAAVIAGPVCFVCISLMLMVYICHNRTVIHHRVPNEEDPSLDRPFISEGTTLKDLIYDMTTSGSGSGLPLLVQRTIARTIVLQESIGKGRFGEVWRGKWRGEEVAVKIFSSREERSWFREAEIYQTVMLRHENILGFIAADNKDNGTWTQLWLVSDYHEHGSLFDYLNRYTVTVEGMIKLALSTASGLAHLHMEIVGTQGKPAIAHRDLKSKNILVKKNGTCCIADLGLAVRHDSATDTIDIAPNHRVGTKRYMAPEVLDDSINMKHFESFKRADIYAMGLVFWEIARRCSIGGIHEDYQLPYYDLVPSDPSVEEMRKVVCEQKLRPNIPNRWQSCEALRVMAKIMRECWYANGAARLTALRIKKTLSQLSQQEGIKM
Chain of UniProt Q00535 (whole entry, looked up): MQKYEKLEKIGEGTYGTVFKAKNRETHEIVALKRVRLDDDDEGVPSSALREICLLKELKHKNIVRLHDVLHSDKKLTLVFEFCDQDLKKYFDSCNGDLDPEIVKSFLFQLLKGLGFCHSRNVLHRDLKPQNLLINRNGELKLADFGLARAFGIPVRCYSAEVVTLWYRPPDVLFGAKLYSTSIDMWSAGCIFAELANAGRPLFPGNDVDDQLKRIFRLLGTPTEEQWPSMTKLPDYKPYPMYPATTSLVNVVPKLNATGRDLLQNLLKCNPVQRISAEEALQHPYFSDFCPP

Series 1 — observed: enzyme activity; mode: inhibitor; concentration: 0.5 µM; reference: control
SMILES: CO[C@H]1C[C@@H]2CC[C@@H](C)[C@@](O)(O2)C(=O)C(=O)N2CCCC[C@H]2C(=O)O[C@H]([C@H](C)C[C@@H]2CC[C@@H](O)[C@H](OC)C2)CC(=O)[C@H](C)/C=C(\C)[C@@H](O)[C@@H](OC)C(=O)[C@H](C)C[C@H](C)/C=C/C=C/C=C/1C
target | remaining activity
cGMP-dependent protein kinase 1, isoform beta (PRKG1, Homo sapiens, UniProt Q13976) | 91%
CAMKK2 (Homo sapiens, UniProt Q96RR4) | 115%
Cyclin-dependent kinase 5, with p25 (CDK5, Homo sapiens, UniProt Q00535) | 96.3%
STK11 (Homo sapiens, UniProt Q15831) | 91.1%
STK39 (Homo sapiens, UniProt Q9UEW8) | 97.9%
IKBKE (Homo sapiens, UniProt Q14164) | 99.4%
DAPK1 (Homo sapiens, UniProt P53355) | 88.5%
IKBKB (Homo sapiens, UniProt O14920) | 109%
TGFBR1 (Homo sapiens, UniProt P36897) | 99.5%
PRKCA (Homo sapiens, UniProt P17252) | 108%

Series 2 — observed: cell-free assay; technique: competition with immobilised ligand; concentration: 0.1 µM
Compound: COCCOc1nc(-c2ccc(Cl)nc2)nc2c1CN(C(=O)c1ncn3ccccc13)CC2
target | remaining binding [%]
STK3 (Homo sapiens, UniProt Q13188) | 100
BRSK2 (Homo sapiens, UniProt Q8IWQ3) | 93
ANKK1 (Homo sapiens, UniProt Q8NFD2) | 100
EGFR (Homo sapiens, UniProt P00533, del747-752/P753S) | 100
ITK (Homo sapiens, UniProt Q08881) | 100

Series 3 — observed: AlphaScreen signal; technique: AlphaScreen counter screen; medium: His6 peptide without bromodomain; concentration: 50 µM; notes: assay interference check
SMILES | inhibition [%]
N#CC(=Cc1ccncc1)c1nc2cc(C(F)(F)F)ccc2s1 | 51.6
CCc1sc2nc[nH]c(=O)c2c1-c1ccccc1 | 11.8
Cc1c(Cn2c(C)nc3c(C(=O)O)cc(N4CCOCC4)cc32)cccc1C(F)(F)F | 46.4
Clc1ccc(Nc2nnc(Cc3ccncc3)c3ccccc23)cc1 | 19.9
Cc1cc(C(=O)C(C#N)=Cc2ccncc2)c(C)n1-c1ccccc1F | 37.4
CCN(CC)CCNc1nc(-c2cccc(OC)c2O)nc2ccccc12 | 51.4
CNC(=O)c1nn(C)c2c1C(C)(C)Cc1cnc(Nc3ccc(N4CCN(C)CC4)cc3)nc1-2 | 54
N#CC(=C(N)Sc1ccccc1N)C(C#N)=C(N)Sc1ccccc1N | 10.4
CS(=O)(=O)N1CCN(Cc2cc3nc(-c4cccc5[nH]ncc45)nc(N4CCOCC4)c3s2)CC1 | 30.1

Single results of other studies
Structure (SMILES) | target | mode | concentration | endpoint | result
CNCCC[C@]12CC[C@H](c3ccccc31)c1ccccc12 | DNA polymerase theta, ATPase domain (POLQ, Homo sapiens, UniProt O75417) | inhibitor | 77 µM | remaining activity | 101%

Repeated from above (series 3):
SMILES | inhibition [%]
CCN(CC)CCNc1nc(-c2cccc(OC)c2O)nc2ccccc12 | 51.4
CCc1sc2nc[nH]c(=O)c2c1-c1ccccc1 | 11.8
